Measured values pooled from the literature.
Protocols differ between the studies behind these lines. Several values in a cell are separate wells, animals, samples, runs or records. ± marks the error that the study gave.
lecA: PA-I galactophilic lectin (lecA, Pseudomonas aeruginosa, UniProt Q05097)
Chain of UniProt Q05097 (whole entry, looked up): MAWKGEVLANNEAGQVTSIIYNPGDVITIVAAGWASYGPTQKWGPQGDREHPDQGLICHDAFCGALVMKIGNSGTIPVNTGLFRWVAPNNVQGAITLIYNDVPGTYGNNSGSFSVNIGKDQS
YWHAZ: 14-3-3 protein zeta/delta (YWHAZ, Homo sapiens, UniProt P63104)
Chain of UniProt P63104 (whole entry, looked up): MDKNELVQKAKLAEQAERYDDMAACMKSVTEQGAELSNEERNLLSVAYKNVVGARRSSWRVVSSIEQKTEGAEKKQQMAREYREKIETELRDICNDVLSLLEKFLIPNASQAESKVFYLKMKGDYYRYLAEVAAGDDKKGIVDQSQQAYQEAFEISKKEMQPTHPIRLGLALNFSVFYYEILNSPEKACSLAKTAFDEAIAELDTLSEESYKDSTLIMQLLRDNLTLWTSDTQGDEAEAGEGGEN
NRP1: Neuropilin-1 (NRP1, Homo sapiens, UniProt O14786)
Chain of UniProt O14786 (whole entry, looked up): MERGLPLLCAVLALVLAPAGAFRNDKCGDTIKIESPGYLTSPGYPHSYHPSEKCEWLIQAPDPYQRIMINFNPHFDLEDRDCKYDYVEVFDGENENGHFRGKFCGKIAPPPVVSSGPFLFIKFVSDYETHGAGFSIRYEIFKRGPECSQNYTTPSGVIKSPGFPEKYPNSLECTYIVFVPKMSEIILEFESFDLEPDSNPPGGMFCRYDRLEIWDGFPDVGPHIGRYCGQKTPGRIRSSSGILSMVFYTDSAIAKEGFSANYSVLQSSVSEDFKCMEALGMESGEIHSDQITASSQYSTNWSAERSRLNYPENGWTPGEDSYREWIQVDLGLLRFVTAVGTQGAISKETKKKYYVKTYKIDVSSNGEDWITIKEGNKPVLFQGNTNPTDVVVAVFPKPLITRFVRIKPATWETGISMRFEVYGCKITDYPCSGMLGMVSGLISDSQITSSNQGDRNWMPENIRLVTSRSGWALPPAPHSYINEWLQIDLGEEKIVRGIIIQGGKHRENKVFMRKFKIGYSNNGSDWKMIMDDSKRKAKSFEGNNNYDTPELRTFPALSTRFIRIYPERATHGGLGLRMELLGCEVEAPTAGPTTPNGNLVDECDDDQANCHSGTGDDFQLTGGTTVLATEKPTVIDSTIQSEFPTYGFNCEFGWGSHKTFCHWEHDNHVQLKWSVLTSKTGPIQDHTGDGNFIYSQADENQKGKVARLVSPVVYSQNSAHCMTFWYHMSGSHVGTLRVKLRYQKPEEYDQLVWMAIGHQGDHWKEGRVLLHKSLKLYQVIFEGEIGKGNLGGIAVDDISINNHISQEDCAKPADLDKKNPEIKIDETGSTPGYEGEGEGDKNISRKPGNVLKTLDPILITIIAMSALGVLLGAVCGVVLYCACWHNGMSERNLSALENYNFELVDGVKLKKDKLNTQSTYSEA
Complement C3: Complement C3 (Homo sapiens, UniProt P01024)
Chain of UniProt P62993 (whole entry, looked up): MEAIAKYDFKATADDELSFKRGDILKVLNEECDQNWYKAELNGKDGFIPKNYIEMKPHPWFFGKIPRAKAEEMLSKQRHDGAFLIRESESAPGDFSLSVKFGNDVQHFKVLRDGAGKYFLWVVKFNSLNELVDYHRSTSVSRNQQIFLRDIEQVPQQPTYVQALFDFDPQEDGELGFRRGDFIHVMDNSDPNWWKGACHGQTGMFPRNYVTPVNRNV
Chain of UniProt P01024 (whole entry, looked up): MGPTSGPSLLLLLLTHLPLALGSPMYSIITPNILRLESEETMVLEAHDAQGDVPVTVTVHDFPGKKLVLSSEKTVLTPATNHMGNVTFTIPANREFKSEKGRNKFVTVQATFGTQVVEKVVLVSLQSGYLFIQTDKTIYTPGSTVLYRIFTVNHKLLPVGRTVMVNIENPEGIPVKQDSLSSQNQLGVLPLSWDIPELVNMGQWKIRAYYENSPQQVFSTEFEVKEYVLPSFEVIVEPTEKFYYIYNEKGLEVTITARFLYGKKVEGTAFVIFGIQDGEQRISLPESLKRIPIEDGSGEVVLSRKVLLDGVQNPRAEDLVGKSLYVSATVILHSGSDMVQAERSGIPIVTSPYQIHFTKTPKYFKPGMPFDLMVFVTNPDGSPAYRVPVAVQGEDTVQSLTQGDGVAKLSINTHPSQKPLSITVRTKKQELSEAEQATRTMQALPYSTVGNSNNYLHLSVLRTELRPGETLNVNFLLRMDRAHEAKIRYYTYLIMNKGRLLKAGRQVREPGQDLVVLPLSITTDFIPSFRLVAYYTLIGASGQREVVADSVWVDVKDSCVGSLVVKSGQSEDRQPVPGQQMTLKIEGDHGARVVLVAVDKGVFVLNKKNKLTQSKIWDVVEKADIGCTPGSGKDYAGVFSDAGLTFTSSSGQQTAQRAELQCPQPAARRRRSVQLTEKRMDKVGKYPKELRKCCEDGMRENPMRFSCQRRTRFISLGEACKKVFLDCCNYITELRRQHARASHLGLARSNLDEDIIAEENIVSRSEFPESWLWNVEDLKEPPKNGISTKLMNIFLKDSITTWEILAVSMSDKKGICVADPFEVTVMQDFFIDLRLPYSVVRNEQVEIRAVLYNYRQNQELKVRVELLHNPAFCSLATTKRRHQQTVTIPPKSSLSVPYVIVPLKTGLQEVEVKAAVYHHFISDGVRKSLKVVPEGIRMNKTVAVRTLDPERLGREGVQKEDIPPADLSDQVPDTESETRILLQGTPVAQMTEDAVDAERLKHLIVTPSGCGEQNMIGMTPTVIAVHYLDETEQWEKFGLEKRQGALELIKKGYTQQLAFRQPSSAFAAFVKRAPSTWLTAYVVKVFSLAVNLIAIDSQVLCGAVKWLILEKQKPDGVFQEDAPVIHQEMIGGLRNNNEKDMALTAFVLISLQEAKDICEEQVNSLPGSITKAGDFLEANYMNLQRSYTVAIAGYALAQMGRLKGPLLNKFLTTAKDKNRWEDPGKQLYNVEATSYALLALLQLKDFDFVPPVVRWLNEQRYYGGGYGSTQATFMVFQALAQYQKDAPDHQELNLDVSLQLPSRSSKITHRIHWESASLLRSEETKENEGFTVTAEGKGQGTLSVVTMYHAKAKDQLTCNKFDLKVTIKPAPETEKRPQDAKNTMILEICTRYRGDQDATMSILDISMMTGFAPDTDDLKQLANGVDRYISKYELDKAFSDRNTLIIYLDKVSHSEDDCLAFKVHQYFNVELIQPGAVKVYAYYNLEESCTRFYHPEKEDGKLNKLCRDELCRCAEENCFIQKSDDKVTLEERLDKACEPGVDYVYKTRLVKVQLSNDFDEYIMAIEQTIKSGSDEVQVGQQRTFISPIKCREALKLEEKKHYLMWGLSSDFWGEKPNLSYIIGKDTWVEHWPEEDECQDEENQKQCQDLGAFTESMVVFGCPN
Chain of UniProt Q4VCS5 (whole entry, looked up): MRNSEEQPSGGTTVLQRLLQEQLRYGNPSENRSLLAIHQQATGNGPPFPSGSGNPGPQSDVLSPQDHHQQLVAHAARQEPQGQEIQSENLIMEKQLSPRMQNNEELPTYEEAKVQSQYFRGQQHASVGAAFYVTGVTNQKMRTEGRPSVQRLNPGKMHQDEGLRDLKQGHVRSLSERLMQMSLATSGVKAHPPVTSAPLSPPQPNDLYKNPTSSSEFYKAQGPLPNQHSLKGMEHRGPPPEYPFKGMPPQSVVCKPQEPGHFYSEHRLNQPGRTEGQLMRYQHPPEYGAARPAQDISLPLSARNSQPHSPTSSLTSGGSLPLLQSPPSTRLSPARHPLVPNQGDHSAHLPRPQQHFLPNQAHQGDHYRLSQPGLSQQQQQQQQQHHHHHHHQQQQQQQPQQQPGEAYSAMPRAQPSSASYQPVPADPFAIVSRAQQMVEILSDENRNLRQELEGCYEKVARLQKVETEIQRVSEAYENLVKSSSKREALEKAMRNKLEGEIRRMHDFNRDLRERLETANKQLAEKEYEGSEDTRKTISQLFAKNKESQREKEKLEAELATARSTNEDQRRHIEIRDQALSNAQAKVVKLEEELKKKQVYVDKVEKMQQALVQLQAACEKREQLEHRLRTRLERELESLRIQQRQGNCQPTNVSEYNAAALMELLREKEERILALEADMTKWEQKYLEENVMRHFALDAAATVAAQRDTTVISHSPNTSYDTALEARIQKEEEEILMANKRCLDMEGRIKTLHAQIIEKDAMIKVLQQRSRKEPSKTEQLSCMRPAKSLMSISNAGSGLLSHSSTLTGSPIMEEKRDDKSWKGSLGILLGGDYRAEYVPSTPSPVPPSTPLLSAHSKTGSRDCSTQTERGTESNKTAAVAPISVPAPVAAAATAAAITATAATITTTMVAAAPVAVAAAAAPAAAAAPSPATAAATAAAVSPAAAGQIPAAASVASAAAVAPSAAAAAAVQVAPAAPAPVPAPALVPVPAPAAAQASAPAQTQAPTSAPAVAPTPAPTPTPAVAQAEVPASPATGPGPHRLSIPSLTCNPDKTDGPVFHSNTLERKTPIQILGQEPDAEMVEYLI
Chain of UniProt Q9Y294 (whole entry, looked up): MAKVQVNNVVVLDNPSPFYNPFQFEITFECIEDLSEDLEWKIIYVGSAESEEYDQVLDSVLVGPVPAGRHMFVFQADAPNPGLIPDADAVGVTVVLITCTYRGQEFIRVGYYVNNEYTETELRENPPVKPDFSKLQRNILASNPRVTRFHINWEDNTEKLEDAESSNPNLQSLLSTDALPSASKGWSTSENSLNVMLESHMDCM
Chain of UniProt Q9NXA8 (whole entry, unmodified, looked up): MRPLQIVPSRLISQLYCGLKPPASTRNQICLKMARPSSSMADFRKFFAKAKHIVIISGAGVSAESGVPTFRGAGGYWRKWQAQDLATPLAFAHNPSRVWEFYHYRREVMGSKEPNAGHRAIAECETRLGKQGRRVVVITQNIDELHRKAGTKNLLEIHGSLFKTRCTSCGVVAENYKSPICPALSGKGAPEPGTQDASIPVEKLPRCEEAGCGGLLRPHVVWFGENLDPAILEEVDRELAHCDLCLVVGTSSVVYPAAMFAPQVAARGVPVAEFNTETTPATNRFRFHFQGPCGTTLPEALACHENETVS
Chain of UniProt Q04917 (whole entry, looked up): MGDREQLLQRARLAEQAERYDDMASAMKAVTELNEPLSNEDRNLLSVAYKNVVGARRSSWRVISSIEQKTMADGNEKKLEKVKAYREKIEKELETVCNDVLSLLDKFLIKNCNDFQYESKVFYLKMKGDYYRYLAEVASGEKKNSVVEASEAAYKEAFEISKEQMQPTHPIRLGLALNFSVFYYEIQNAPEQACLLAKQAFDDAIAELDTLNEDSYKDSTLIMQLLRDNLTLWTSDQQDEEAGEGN

Nc1nc2c(ncn2[C@@H]2O[C@@H]3COP(=O)(O)O[C@H]4[C@@H](O)[C@H](n5cnc6c(N)ncnc65)O[C@@H]4COP(=O)(O)O[C@H]3[C@H]2O)c(=O)[nH]1  Kd (darB (Bacillus subtilis, UniProt O31698); binding, ITC): 1.17 µM
N=C(N)c1cc(-c2ccccc2)c(-c2cncn2CCN)s1  Kd (YWHAH/AMOT (Homo sapiens, UniProt Q04917+Q4VCS5); binding, microscale thermophoresis; pH 7.4, 25 °C, added: Cy5 peptide 50 nM): 161 µM
O=C(COc1ccc2ccccc2c1)N[C@@H](Cc1cn(CCNC(=O)c2ccc(S[C@@H]3O[C@H](CO)[C@H](O)[C@H](O)[C@H]3O)cc2)nn1)C(=O)NCCO  Kd (lecA; binding, SPR): 6.4 µM
Nc1ncnc2c1ncn2[C@@H]1O[C@H](COP(=O)(O)OP(=O)(O)OP(=O)(O)O)[C@@H](O)[C@H]1O  Kd (dnaA (Escherichia coli, UniProt P03004); binding, radiometric): 0.1 µM
CC1=CC(C)(C)Nc2c(C(=O)O)cc(C)cc21  Kd (E3 ubiquitin-protein ligase CBL-C (Homo sapiens, UniProt Q9ULV8); binding, NMR): 1200 µM
CC[C@H](C)[C@@H]1NC(=O)[C@H](Cc2ccc(O)cc2)NC(=O)[C@@H]2CCCN2C(=O)[C@H](CCCNC(=N)N)NC(=O)[C@@H](Cc2c[nH]c3ccccc23)NC(=O)CSC[C@@H](C(=O)NCC(N)=O)NC(=O)[C@H](C(C)C)NC(=O)[C@H]([C@@H](C)CC)NC(=O)[C@H](CC(C)C)NC(=O)[C@H](CCCNC(=N)N)NC(=O)CNC(=O)[C@H]([C@@H](C)O)NC(=O)[C@H](Cc2c[nH]c3ccccc23)NC(=O)[C@H](CCCNC(=N)N)NC(=O)[C@H](CCC(=O)O)NC1=O  Kd (Plexin-B1 (Plxnb1, Mus musculus, UniProt Q8CJH3); surface plasmon resonance): 0.044 µM
C[n+]1ccc(/C=N/NC(=O)c2cncc(C(=O)N/N=C/c3cc[n+](C)c4ccccc34)n2)c2ccccc21  Kd (telomeric G4 DNA hybrid-2; binding, fluorescence titration; 100 mM KCl buffer; pH 7.2, added: labelled G4 DNA 2 nM): 0.0238 ± 0.0018 µM
CC[C@H](C)[C@H](NC(=O)[C@H](CC(C)C)NC(=O)[C@@H](NC(=O)[C@@H](N)CC(=O)O)[C@@H](C)CC)C(=O)N[C@H](C(=O)N[C@H](C(=O)NCC(=O)NCC(=O)O)C(C)C)[C@@H](C)CC  Kd (Rgg3 Streptococcus pyogenes; competition fluorescence polarization; added: 10 nM FITC-labelled compound): 0.22 µM
O=C(COc1ccc(F)cc1)N[C@@H](Cc1cn(CCNC(=O)c2ccc(S[C@@H]3O[C@H](CO)[C@H](O)[C@H](O)[C@H]3O)cc2)nn1)C(=O)NCCO  Kd (lecA; binding, ITC): 8.6 µM
O=P(O)(O)O[C@@H]1[C@@H](O)[C@H](O)[C@H](O)[C@H](O)[C@H]1OP(=O)(O)O  Kd (Inositol 1,4,5-trisphosphate-gated calcium channel ITPR1, IP3-binding core (Itpr1, Rattus norvegicus, UniProt P29994, R504Q); binding, 3H-IP3 competition; IP3-binding core IBC^R504Q): 0.624 µM
CN1CCN(Cc2ccc(NC(=O)Nc3ccc(Oc4cc(NC(=O)C5CC5)ncn4)cc3)cc2C(F)(F)F)CC1  Kd (YWHAZ; binding): 2.29 µM
OC(Cc1cc(-c2ccc(C(O)C(F)(F)F)s2)sc1-c1ccc(-c2sc(-c3ccc(C(O)C(F)(F)F)s3)cc2CC(O)C(F)(F)F)s1)C(F)(F)F (stereo not drawn)  Kd (Amyloid-beta precursor protein, Aβ40/Aβ42 aggregates (APP, Homo sapiens, UniProt P05067); Aβ40 Aβ42 aggregate binding, fluorescence; 200 min aggregation, Aβ40:Aβ42 9:1): 2.1 µM
CC(=O)N[C@H](C(=O)N1CCC[C@H]1C(=O)N1CCC[C@H]1C(=O)N1C[C@@H]2C[C@H]1C(=O)N[C@@H](C(C)C)C(=O)N1CCC[C@H]1C(=O)N1C[C@@H](C[C@H]1C(=O)N[C@@H](CCCNC(=N)N)C(=O)N[C@@H](CCCNC(=N)N)C(=O)N[C@@H](CCCNC(=N)N)C(N)=O)OCC=CCO2)C(C)C  Kd (Growth factor receptor-bound protein 2, N-terminal SH3 domain (GRB2, Homo sapiens, UniProt P62993); binding, tryptophan fluorescence; PBS; 21 °C): ~33 µM and 33.5 µM
OC[C@H]1O[C@@H](OCc2cn([C@@H]3O[C@H](CO)[C@@H](n4cc(CCCCc5cn([C@H]6[C@H](O)[C@@H](O)[C@H](n7cc(CO[C@@H]8O[C@H](CO)[C@H](O)[C@H](O)[C@H]8O)nn7)O[C@@H]6CO)nn5)nn4)[C@H](O)[C@H]3O)nn2)[C@H](O)[C@@H](O)[C@H]1O  Kd (lecA; binding, ITC; pH 7.5): 0.013 µM and 0.012 to 0.013 µM
N=C(N)NCCC[C@H](NC(=O)[C@@H](N)CS)C(=O)NCC(=O)N[C@@H](CC(=O)O)C(=O)N[C@@H](CCCCN)C(=O)O  Kd (NRP1; binding): 1.4 µM
N=C(N)NCCC[C@H](NC(=O)[C@H](CCCNC(=N)N)NC(=O)[C@H](CC(N)=O)NC(=O)[C@H](CCCNC(=N)N)NC(=O)[C@@H]1CCCN1C(=O)[C@H](CCCCN)NC(=O)[C@H](CCCCN)NC(=O)[C@H](CCC(N)=O)NC(=O)[C@H](CC(=O)O)NC(=O)[C@@H](N)Cc1c[nH]c2ccccc12)C(=O)O  Kd (NRP1; binding, ITC; pH 7.4): 33 µM
CCOC(=O)C1=CN([C@@H]2O[C@H](CO)[C@@H](O)[C@H]2O)C=CC1  Kd (NAD-dependent protein deacylase sirtuin-5, mitochondrial (SIRT5, Homo sapiens, UniProt Q9NXA8, R105A); binding, MST): 130 µM
CO[C@H](C(=O)[C@@H](O)[C@@H](C)O)[C@@H]1Cc2cc3cc(O[C@H]4C[C@@H](O[C@H]5C[C@@H](O)[C@H](O)[C@@H](C)O5)[C@H](O)[C@@H](C)O4)c(C)c(O)c3c(O)c2C(=O)[C@H]1O[C@H]1C[C@@H](O[C@H]2C[C@@H](O[C@H]3C[C@](C)(O)[C@H](O)[C@@H](C)O3)[C@@H](O)[C@@H](C)O2)[C@H](O)[C@@H](C)O1  Kd (human histone H2B; fluorescence quenching titration; pH 7.0, 25 °C, no Mg2+): 1.7 ± 0.05 µM
CCOP(=O)(CC(=O)Nc1ccc(S(=O)(=O)N(CC(N)=O)c2ccc(N(CC(N)=O)S(=O)(=O)c3ccc(OC)cc3)c3ccccc23)cc1)OCC  Kd (Kelch-like ECH-associated protein 1 (KEAP1, Homo sapiens, UniProt Q14145); binding, FP): 0.94 µM
C[n+]1cc2cc3cc(ccc31)NC(=O)CCCCC(=O)Nc1ccc3c(c1)cc(c[n+]3C)C(=O)NCc1cccc(c1)CNC2=O  Kd (Pu22 G-quadruplex DNA; microscale thermophoresis): 3.45 ± 0.38 µM
COc1ccc(Nc2nc(N3CCOCC3)c3nc[nH]c3n2)cc1OC  Kd (Tyrosine-protein kinase BTK (BTK, Homo sapiens, UniProt Q06187); binding, ITC): 5 µM
CC(=O)N[C@@H](Cc1c[nH]c2ccccc12)C(=O)N[C@H]1CSSC[C@@H](C(=O)N[C@@H](Cc2c[nH]c3ccccc23)C(N)=O)NC(=O)[C@H](CCCNC(=N)N)NC(=O)[C@H](Cc2c[nH]cn2)NC(=O)[C@H](C)NC(=O)CNC(=O)[C@H](Cc2c[nH]c3ccccc23)NC(=O)[C@H](CC(=O)O)NC(=O)[C@H](CCC(N)=O)NC(=O)[C@H](Cc2c[nH]c3ccccc23)NC(=O)[C@H](C(C)C)NC1=O  Kd (Complement C3; surface plasmon resonance; 25 °C, 1:1 binding model): 0.38 µM
CC[C@H](C)[C@H](NC(=O)[C@H](CCCNC(=N)N)NC(=O)NC[C@H](CCC(N)=O)NC(=O)NC[C@H](CC(C)C)NC(=O)NC[C@H](CCCNC(=N)N)NC(=O)NC[C@H](Cc1ccc2ccccc2c1)NC(=O)[C@H](CCCNC(=N)N)NC(=O)[C@H](CCC(=O)O)NC(C)=O)C(=O)N[C@@H](C)C(N)=O  Kd (Histone chaperone ASF1A (Homo sapiens, UniProt Q9Y294); binding, ITC; pH 7.5): 6.6 µM
CC(C)=CCC[C@](C)(O)[C@H]1CC[C@]2(C)[C@@H]1[C@H](O)C[C@@H]1[C@@]3(C)CC[C@H](O)C(C)(C)[C@@H]3CC[C@]12C  Kd (YWHAZ; biolayer interferometry; 30 °C): 46.8 ± 1.2e-05 µM
CC[C@H](C)[C@H](NC(C)=O)C(=O)N[C@H]1CSSC[C@@H](C(=O)N[C@@H](Cc2c[nH]c3ccccc23)C(N)=O)NC(=O)[C@H](CCCNC(=N)N)NC(=O)[C@H](Cc2c[nH]cn2)NC(=O)[C@H](C)NC(=O)CNC(=O)[C@H](Cc2c[nH]c3ccccc23)NC(=O)[C@H](CC(=O)O)NC(=O)[C@H](CCC(N)=O)NC(=O)[C@H](Cc2c[nH]c3ccccc23)NC(=O)[C@H](C(C)C)NC1=O  Kd (Complement C3; surface plasmon resonance; 25 °C, two-state reaction model): 0.74 µM
O=C(Cc1ccccc1O)N[C@@H](Cc1cn(CCNC(=O)c2ccc(S[C@@H]3O[C@H](CO)[C@H](O)[C@H](O)[C@H]3O)cc2)nn1)C(=O)NCCO  Kd (lecA; binding, ITC): 8.8 µM
CC(=O)[C@@]1(O)CC[C@H]2[C@@H]3CCC4=CC(=O)CC[C@]4(C)[C@H]3CC[C@@]21C  Kd (anti-cortisol Fab fragment 17 (mouse); binding, surface plasmon resonance): 0.08 µM

Excerpt of the above:
CCOC(=O)C1=CN([C@@H]2O[C@H](CO)[C@@H](O)[C@H]2O)C=CC1  Kd (NAD-dependent protein deacylase sirtuin-5, mitochondrial (SIRT5, Homo sapiens, UniProt Q9NXA8, R105A); binding, MST): 130 µM
CO[C@H](C(=O)[C@@H](O)[C@@H](C)O)[C@@H]1Cc2cc3cc(O[C@H]4C[C@@H](O[C@H]5C[C@@H](O)[C@H](O)[C@@H](C)O5)[C@H](O)[C@@H](C)O4)c(C)c(O)c3c(O)c2C(=O)[C@H]1O[C@H]1C[C@@H](O[C@H]2C[C@@H](O[C@H]3C[C@](C)(O)[C@H](O)[C@@H](C)O3)[C@@H](O)[C@@H](C)O2)[C@H](O)[C@@H](C)O1  Kd (human histone H2B; fluorescence quenching titration; pH 7.0, 25 °C, no Mg2+): 1.7 ± 0.05 µM
